Experimental data pooled from the literature.
Numbered parts are unrelated; each lists some results of a single study. Substitutions count along the parent as printed.

Series 1
Target: RNA binding protein fox-1 homolog 2, RRM domain, GST-SBP tag (RBFOX2, Homo sapiens, UniProt O43251-10, residues 100-194)
Technique: RNA Bind-n-Seq
Form: RNA
Matrix: in vitro
Tested at: 365 nM
Setting: natural RNA segment, single round, ends assumed
Relative to: no-protein control
Direction: higher = stronger binding
Shared flanks, not repeated: GGGAGUUCUACAGUCCGACGAUC … UGGAAUUCUCGGGUGCCAA
Construct (chain): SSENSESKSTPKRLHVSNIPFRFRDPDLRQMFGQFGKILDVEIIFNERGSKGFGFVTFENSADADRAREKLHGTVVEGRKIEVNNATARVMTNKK
Oligonucleotide	RBNS enrichment (R)
CAAGGGCAGUGAGCAAGAGAAAUGUCUAAAGCUGCUUCUCCCAACACCGUCCAAAGUCUCCACUGCCUGAGUUUUGUUUCGGCUGGUUUGAACUCAUUUCGGGUGUGUGC	1.05
GAUUAAAAACUUUCUCUUCCACGGACUUUAAGCCCGGUAGGAAAGAGAGAGGAGGAGGGGGAAAGAGCAAACCAUCUUUCUUCCAGGCCCUUGACUGCUCCUUUGGGCUG	0.312
CUAGACACUCCUUGAAAUGUGUGUGUGAUGGAGGGAAGGGGACAGAUUUGAGGACUGAAGCUGGGGCUUGGGGAUUGCCACUAAGUACAGCUGACGGUUUCUCCCCGGAC	3.24
UGGUGGGGGUGGAGUUCCCUCCCAAACACCAGACCACACAGUCCUCCAAAAAUAAACAUUUUAUAUAACAUUUGGUUUUGCUUUUCUGUUCUCCCCAACAGGGAACUCUG	0.349
CUGCAGCUUUAGUUACUGAUCUAGAAGCCCUGUAGUGUGAAGCGGCCGCUGCAGGCCAUUGUACACAAACUGGUUGUAUGUAUCAGACUGCAGAUGGGAGGAGCAGUGGU	0.457
CUCACAUGUCACUUCCAGAGGAACGGGGGACAGCCAGGCUCGCCCAUGGGCCUUCAGGAAUAUUUAUACAUGGCCCAGCCUGCACUGCCCGGGCGAGGGCAGAGGACACU	0.617
CUUGCGAGCCCUGGCCAGGGGAGGAAGUGAGGCCCAGGCACCUGCUGCCCCUCGAGGGGGCCCUGCCUGCCGCGGGGCCUCCCCACAAGCCCCUCCCAAAGCGCCGGCCG	0.322
GCUUUCUGGGGCAGACCCUUGUCCUCUGGGAUGAUGGGCACUGCUAUCCACAGUCUCUGCCAGUUGGUUUUAUUUGGAGGUUUGUGGGCUUUUUUUAAAAAAAAAAAGUC	0.333
CCACCCUUCACUGAGUUCUCUGGAUUUGUUCUCAGUGCCUUAGCAACGAAAACCUGUGCUUGUGUGUGUGUGGCGGCGGGGAGGGAGGAUCCUGUUUCCCACCUCCUUCU	0.705
CUGUUGUGAAUGCCCAGUUGUAUUUUUAUAAGGUUGUAUAUAUGGGGAAAAAAAGUAUCGGUGAGUUUUAAAUGAAAGCACAUAUUACUGCCAGCGUGGAGAGAGGAAGA	1.91
UAGAAACUGAAAAAUAAUCCAGUGACAUCAUUCUGGGUGUGUUCUCACUAGCUCGCGGGGCCACUUGCUGCCCAUGUGACGAAUAACAGAAGAUCUUAUCUUGCCAGGCC	5.19
CCAUACAAAUAACUCAGCACACAAGUGACCCAGGACAUAUGCCUGCCAAAGGGAUGUGUUAGAAGGCUGCCUUCUCAUGCGCAUUGUCACUUGGAUCUUGUGGUGAGGAC	0.287

Series 2
Target: ABI1, truncated, D143A, DHFR fusion (Arabidopsis thaliana)
Technique: DHFR PCA, deep sequencing
Matrix: yeast
Setting: methotrexate growth selection, single substitutions
Added: (+)-ABA 200 µM
Relative to: wild-type fitted maximum
Direction: higher = stronger binding
Starting sequence: PYL1, truncated, DHFR fusion (Arabidopsis thaliana); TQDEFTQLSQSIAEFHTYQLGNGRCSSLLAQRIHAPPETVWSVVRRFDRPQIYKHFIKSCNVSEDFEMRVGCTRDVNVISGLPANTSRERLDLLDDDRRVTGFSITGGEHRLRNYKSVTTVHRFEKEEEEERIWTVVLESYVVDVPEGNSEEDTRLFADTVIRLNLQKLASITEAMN; partner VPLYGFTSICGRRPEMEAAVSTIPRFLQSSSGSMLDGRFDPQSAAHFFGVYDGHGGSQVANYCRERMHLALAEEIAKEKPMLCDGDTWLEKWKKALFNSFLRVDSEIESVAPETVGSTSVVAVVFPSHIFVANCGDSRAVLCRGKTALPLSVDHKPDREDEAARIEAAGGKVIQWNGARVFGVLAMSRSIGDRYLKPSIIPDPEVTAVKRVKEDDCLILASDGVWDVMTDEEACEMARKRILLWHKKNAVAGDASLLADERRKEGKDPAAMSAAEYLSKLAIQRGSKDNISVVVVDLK
Variant	relative binding score [%]
V40E	-20.5
F15A	53.3
R49C	96.5
V78T	91.7
R163G	82.9
Q2N	90.7
E67K	104
F103G	-10.3
P83R	5.37
R45Y	3.63
C60N	37.7
V70Y	63.4

Series 3
Target: CCNF, cyclin fold, Cln2 fusion (human)
Technique: yeast growth competition, sequencing
Matrix: yeast
Setting: strong parent motif
Relative to: not given
Direction: higher = stronger binding
Starting sequence: RBL2 docking peptide (human); STTRRRLFVENDS
Variant	normalised enrichment score
D12V	8.36
V9G	7.34
N11K	7.94
N11D	8.92
D12E	7.95
F8I	5.07
D12L	8.23
R5V	1.88
E10G	7.71
S1E	5.66
R6A	7.81
R5K	4.57
N11A	8.31
N11Q	8.36
R4S	5.56
R5F	0.915
S13N	7.43
T2A	7.54
D12S	8.29
L7P	0.687
L7G	-0.225
T2D	5.57
T3G	6.35
T3N	1.73
R4L	1.69

Series 4
Target: DDIT3, bZIP domain (human)
Technique: DHFR protein complementation
Matrix: yeast
Setting: single substitutions, most at no-binding floor
Relative to: wild-type JUN-FOS pair
Direction: higher = stronger binding
Starting sequence: JUN, bZIP domain (human); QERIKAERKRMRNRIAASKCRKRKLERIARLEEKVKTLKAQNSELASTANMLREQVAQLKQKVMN; partner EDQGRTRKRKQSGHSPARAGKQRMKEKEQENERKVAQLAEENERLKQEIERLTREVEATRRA
Variant	binding fitness [natural log]
E33L	-0.0536
L45W	-1.07
K39M	0.0169
V35L	0.0388
K39T	0.172
E33R	-0.0531
R30E	0.207
I28Y	-0.0436
L38H	-1.21
E44T	-0.0835
R30V	0.198
R30G	0.0268
M51E	0.0507
K34D	-0.112
S43C	0.0104
K39W	-0.459
L31K	-1.22
I28V	-0.0282

A few entries again (series 2):
Variant	relative binding score [%]
F103G	-10.3
P83R	5.37
R45Y	3.63
C60N	37.7
